Assay results collected from several papers.
Compare with care: the assays were run in different laboratories. Numbers after ± are the reported error.

| SMILES | assay | test system | conditions | how to read | endpoint | value |
| --- | --- | --- | --- | --- | --- | --- |
| COc1cc2c3c(c4cc(OC)c(OC)cc4c2cc1OC)CN1CCC[C@@H]1C3 |  | Sprague-Dawley rats, male | intravenous, dose not given |  | half-life | ~4 h |
| O=C(NCCS)c1cccc(C(=O)NCCS)c1 |  | rat, Sprague-Dawley, male, plasma | intravenous, 1 mg/kg |  | half-life | 5.83 h |
| CCCC(=O)OCSc1ccccc1C(=O)NCCC(N)=O |  | Sprague-Dawley rat, male, plasma | oral, 1000 mg/kg |  | half-life | 0.5 ± 0.1 h |
| Clc1cccc(-c2cccc(Cl)c2)c1 |  | Sprague-Dawley rats, male, lung, liver and serum | inhalation, 106 µg/m3 |  | half-life | 2 h |
| NC1(c2ccccc2Cl)CCCCC1=O (racemic) |  | male Wistar rats, plasma | intraperitoneal, 40 mg/kg single dose |  | half-life | 6.2 ± 3.1 h |
| C[C@H]1CNCCc2ccc(Cl)cc21 |  | male Sprague-Dawley rat, plasma | subcutaneous, pimavanserin 1 + lorcaserin 1 mg/kg, pimavanserin 15 min earlier |  | half-life | 1.71 ± 0.07 h |
| Nc1ncn([C@@H]2O[C@H](CO)[C@@H](O)[C@H]2O)c(=O)n1 |  | male Rowett nude rat, blood | inhaled vs intraperitoneal, 0.6 vs 2 mg/kg | relative to: aerosol over intraperitoneal | half-life ratio | 2.9 fold |
| COC(=O)COC(=O)c1cncn1[C@H](C)c1ccccc1 | metabolic stability | Sprague-Dawley rat, pooled blood |  |  | half-life | < 0.000556 h |
| CC(C)[C@@H](CC1CCCCC1)NC(=O)[C@H]1Cc2ccc(C(N)=O)cc2CN1 |  | Sprague-Dawley rat, male | 5 mg/kg |  | half-life | 2.3 h |
| Cc1cccc(C)c1OCC(=O)N[C@@H](Cc1ccccc1)[C@@H](O)C[C@H](Cc1ccccc1)NC(=O)[C@H](C(C)C)N1CCCNC1=O |  | male Sprague-Dawley rats, plasma | oral, 160 mg/kg, added: QPD 6 g/kg oral, 30 min before |  | half-life | 2.66 h |
| Oc1ccc(-c2cccc(Cl)c2)cc1Cl |  | Sprague-Dawley rats, male, liver | inhalation, 106 µg/m3, metabolite of inhaled precursor |  | half-life | 2.4 h |
| CC(C)C[C@H](NC(=O)[C@@H](NC(=O)[C@H](Cc1ccc(O)cc1)NC(=O)[C@@H]1CCCN1C(=O)[C@H](CCCNC(=N)N)NC(=O)[C@@H](C)CCC[N+](C)(C)C)C(C)(C)C)C(=O)O | measured: NTR-1 binding activity | rat, plasma | iv, 1 mg/kg |  | half-life | 0.407 h |
| CN1C(=O)CC(=O)N(c2ccccc2)c2cc(Cl)ccc21 |  | Sprague Dawley rat, brain | intraperitoneal, 17 mg/kg |  | half-life | 1.54 h |
| CN1CC[C@@]23CCCC[C@@H]2[C@@H]1Cc1ccc(O)cc13 |  | Wistar rat, both sexes, plasma | oral, 5 mg/kg DEM, DEM 2 h after pretreatment, added: TCE 400 mg/kg single pretreatment |  | half-life | 4.51 ± 2.62 h |

A few entries again:
| SMILES | assay | test system | conditions | how to read | endpoint | value |
| --- | --- | --- | --- | --- | --- | --- |
| Nc1ncn([C@@H]2O[C@H](CO)[C@@H](O)[C@H]2O)c(=O)n1 |  | male Rowett nude rat, blood | inhaled vs intraperitoneal, 0.6 vs 2 mg/kg | relative to: aerosol over intraperitoneal | half-life ratio | 2.9 fold |
| Cc1cccc(C)c1OCC(=O)N[C@@H](Cc1ccccc1)[C@@H](O)C[C@H](Cc1ccccc1)NC(=O)[C@H](C(C)C)N1CCCNC1=O |  | male Sprague-Dawley rats, plasma | oral, 160 mg/kg, added: QPD 6 g/kg oral, 30 min before |  | half-life | 2.66 h |
